Measurements pooled from the literature.
Lines come from different studies, so protocols differ. Several values in a cell are separate wells, animals, samples, runs or records. ± gives the spread as reported.

Compound = CC1(C)CCC(c2ccc(Cl)cc2)=C(CN2CCN(c3ccc(C(=O)NS(=O)(=O)c4ccc(N[C@H](CCN5CCOCC5)CSc5ccccc5)c(S(=O)(=O)C(F)(F)F)c4)cc3)CC2)C1; test = cell killing, flow cytometry PI exclusion; system = canine blood CD21+ B cells, dog 34; setting = 24 h; quantity = EC50; value = 980 nM
Compound = O=C(O)CNC(=O)Cc1ccccc1; system = ventricular cardiomyocytes, C57BL/6 mouse; setting = dose not given, 0.644 s; quantity = sarcomere length; value = 1.71 µm
Compound = CCCCOc1nc(N)c2c(n1)N(Cc1cccc(CN3CCCC3)c1)CC(=O)N2; test = qPCR; system = human, blood; setting = dose not given, 96 h, compound alone; how to read = baseline: predose; quantity = ISG15 mRNA level; value = increased
Compound = CN[C@@H]1COc2c(S(=O)(=O)NC(=O)Nc3c4c(cc5c3CCC5)CCC4)cnn2C1; test = item: IL-1β; system = human participants, whole blood ex vivo; setting = 900 mg twice daily, multiple doses, 1 h, added: LPS/ATP; how to read = baseline: baseline; quantity = inhibition; value = 99.8%
Compound = CN(C)C(=O)c1cc2cnc(Nc3ccc(N4CCNCC4)cn3)nc2n1C1CCCC1; test = RNA-seq GSEA, item: HALLMARK_MITOTIC_SPINDLE; system = MB002 tumour; setting = concentration not given, in vivo; how to read = baseline: vehicle, direction not given; quantity = GSEA enrichment score; value = 0.383
Compound = COc1nc(-c2cc(C)c(N[C@@H](C)c3cc(F)cc(F)c3)nn2)ccc1-n1cnc(C)c1; test = item: Aβ40; system = rat Sprague-Dawley male, plasma; setting = oral, 25 mg/kg daily for 9 days, 4 h after dose; how to read = baseline: vehicle; quantity = change in level; value = 88%
Compound = C[C@H](Oc1ccc(Br)cc1-c1ccon1)C(=O)O; test = last response latency; system = human, tibialis anterior muscle; setting = 200 mg, 15 Hz, SAD; quantity = difference from placebo; value = 0.455%
Compound = Cc1ccc([C@@H]2O[C@H](CO)[C@@H](O)[C@H](O)[C@H]2O)cc1Cc1ccc(-c2ccc(F)cc2)s1; system = Japanese type 2 diabetes patients; setting = 25 mg, day 2; how to read = baseline: day 1; quantity = change in fasting serum insulin; value = 0.6 µU/mL
Compound = C[C@H](NC(=O)[C@@H]1CCCN1C(=O)[C@@H]1CCCN1C(=O)[C@@H](O)[C@H](N)Cc1ccccc1)C(N)=O; test = protease activity; system = HEK-293T cell lysate; setting = 10 µM, added: XP-AMC 500 µM; quantity = cleavage inhibition; value = no inhibition
Compound = CCOc1cc([C@@H](CS(C)(=O)=O)N2C(=O)c3cccc(NC(C)=O)c3C2=O)ccc1OC; system = Balb/c mice, oxazolone atopic dermatitis; setting = day 14, unit not given; how to read = baseline: vehicle; quantity = ear thickness difference; value = -0.131
Compound = NC(=O)c1cnc2[nH]ccc2c1N[C@@H]1[C@@H]2CC3C[C@H]1C[C@@](O)(C3)C2; test = CD8+ effector memory T cells, flow cytometry; system = Japanese humans, peripheral blood; setting = 60 mg single dose; how to read = baseline: baseline; quantity = percent change; value = 0.18%
Compound = CC(c1cc2ccccc2s1)N(O)C(N)=O (stereo not drawn); system = human blood; setting = 3 µM, added: A23187; quantity = DHA level; value = 127000 ± 32500 pg/mL
Compound = N#Cc1ccc2c(c1)[C@H]1CCCN(C(=O)c3ccc4[nH]cnc4c3)[C@H]1C2; system = human, Phase II trial; setting = oral, 80 mg once daily, day 28, adjusted mean, SE; quantity = change, HOMA-beta, from baseline; value = -0.5%
Compound = CC(=O)Oc1cc2c(s1)CCN(C(C(=O)C1CC1)c1ccccc1F)C2 (stereo not drawn); test = platelet aggregation, light transmittance aggregometry; system = human, platelet-rich plasma; setting = dose not given, 30 min, IPA above 90 %, added: TRAP 15 µM; how to read = baseline: patients; quantity = patients with IPA above threshold; value = 0%
Compound = COc1cc(Nc2ncc3c(n2)-c2ccc(Cl)cc2C(c2c(F)cccc2OC)=NC3)ccc1C(=O)O; system = mouse, NB-SD neuroblastoma xenograft; setting = oral, 2.6 mg/kg, day 7; how to read = baseline: vehicle; quantity = relative tumour volume T/C; value = 1.84
Compound = COc1cc2nc(N3CCN(C(=O)C4CCCO4)CC3)nc(N)c2cc1OC (stereo not drawn); test = blood pressure; system = spontaneously hypertensive rat, male; setting = oral, 3 mg/kg; quantity = time to maximum BP lowering; value = 15 min
Compound = CN(Cc1cccnc1)C(=O)c1ccc(C2CCCCC2)cc1; test = liver microsome stability; system = dog liver microsomes; setting = 1 µM; quantity = hepatic clearance; value = 27 mL/min/kg
Compound = N#Cc1ccc(Oc2ccc3c(c2)COB3O)cc1; system = Balb/c mice, oxazolone atopic dermatitis; setting = day 17, unit not given; how to read = baseline: vehicle; quantity = ear thickness difference; value = -0.219
Compound = Cn1cc(Nc2nccc(-c3ccc4c(c3)CN(C3COC3)CC[C@H]4NC(=O)c3cn(C(C)(C)C)nn3)n2)cn1; test = item: LXR/RXR Activation; system = splenic B cells, mouse; setting = in vivo, 30 mg/kg, IgD-activated B cells; how to read = baseline: vehicle, positive = activation; quantity = pathway activation z-score; value = -0.707
Compound = c1ccc(-c2n[nH]cc2-c2ccnc3ccccc23)nc1; test = kinase binding, competitor, MIB/MS competition, item: AKL1; system = Candida albicans cell lysate; setting = 1 µM; how to read = baseline: DMSO; quantity = log2 fold change; value = 1.28
Compound = Cc1cn(-c2ccc3n(c2=O)CCN([C@@H](C)[C@@H]2CC[C@H](c4cc(F)c(Cl)cc4C(F)(F)F)O2)C3=O)cn1; test = item: Aβ37; system = human, cerebrospinal fluid; setting = 300 mg single dose, Tmax; how to read = baseline: placebo-adjusted baseline; quantity = change in CSF level; value = 294%
Compound = O=C(Cc1cccnc1)Nc1ccc(C2CCCCC2)cc1; system = rat liver microsomes; setting = 1 µM; quantity = hepatic clearance; value = 48 mL/min/kg
Compound = Cc1noc(C)c1-c1cc(C(O)(c2ccccn2)c2ccccn2)c2nc(C3CC3)[nH]c2c1; test = item: CCR2 expression; system = human, peripheral blood; setting = 4 mg, day 1, 1604 study; quantity = maximum inhibition; value = 21%
Compound = CC(C)NCC(O)c1ccc(O)c(O)c1 (stereo not drawn); system = ventricular cardiomyocytes, C57BL/6 mouse; setting = dose not given, 0.616 s; quantity = sarcomere length; value = 1.71 µm
Compound = N#Cc1ccc2c(-c3ccncc3)c(-c3ccc(F)cc3)nn2c1; test = kinase binding, competitor, MIB/MS competition, item: HRK1; system = Candida albicans cell lysate; setting = 1 µM; how to read = baseline: DMSO; quantity = log2 fold change; value = 0.236
Compound = C[C@@H](NC(=O)N1C(=O)[C@H](Cc2ccnc(N)c2)[C@H]1C(=O)O)C1CCCCC1; system = healthy Chinese adult volunteers, plasma; setting = continuous intravenous infusion, 0.3 to 2.25 mg/kg/h, 5 days; quantity = prothrombin time change with dose; value = no effect
Compound = N#Cc1ccn2c(-c3ccncc3)c(-c3ccc(F)cc3)nc2c1; test = kinase binding, competitor, MIB/MS competition, item: SHA3; system = Candida albicans cell lysate; setting = 1 µM; how to read = baseline: DMSO; quantity = log2 fold change; value = -0.252
Compound = CC#Cc1cncc(-c2ccc3c(c2)[C@@]2(N=C(C)C(N)=N2)[C@]2(CC[C@H](OC)CC2)C3)c1; test = item: Aβ42; system = Dunkin-Hartley guinea pigs, plasma; setting = oral, dose not given, down to LLOQ; quantity = reduction; value = > 90%
Compound = CC[C@H](C)[C@H](NC(=O)[C@H](Cc1ccccc1)NC(=O)[C@H](CCC(=O)O)NC(=O)[C@H](CCCCN)NC(=O)[C@H](C)NC(=O)[C@H](C)NC(=O)[C@H](CCC(N)=O)NC(=O)CNC(=O)[C@H](CCC(=O)O)NC(=O)[C@H](CC(C)C)NC(=O)[C@H](Cc1ccc(O)cc1)NC(=O)[C@H](CO)NC(=O)[C@H](CO)NC(=O)[C@@H](NC(=O)[C@H](CC(=O)O)NC(=O)[C@H](CO)NC(=O)[C@@H](NC(=O)[C@H](Cc1ccccc1)NC(=O)[C@@H](NC(=O)CNC(=O)[C@H](CCC(=O)O)NC(=O)C(C)(C)NC(=O)[C@@H](N)Cc1cnc[nH]1)[C@@H](C)O)[C@@H](C)O)C(C)C)C(=O)N[C@@H](C)C(=O)N[C@@H](Cc1c[nH]c2ccccc12)C(=O)N[C@@H](CC(C)C)C(=O)N[C@H](C(=O)N[C@@H](CCCNC(=N)N)C(=O)NCC(=O)N[C@@H](CCCNC(=N)N)C(=O)NCC(=O)NCC(=O)NCC(=O)NCC(=O)N[C@@H](CO)C(=O)NCC(=O)NCC(=O)NCC(=O)NCC(=O)N[C@@H](CO)C(=O)NCC(=O)NCC(=O)NCC(=O)NCC(=O)N[C@@H](CO)C(=O)NCC(=O)N[C@@H](CSC1CC(=O)N(CCC(=O)NCC(=O)NCCOCCOCCOCCOCCC(=O)N[C@@H](CCCCNC(=O)CC[C@H](NC(=O)CCCCCCCCCCCCCCCCC(=O)O)C(=O)O)C(=O)NCCOCCOCCOCCOCCC(=O)N[C@@H](CCCCNC(=O)CC[C@H](NC(=O)CCCCCCCCCCCCCCCCCCC(=O)O)C(=O)O)C(=O)O)C1=O)C(=O)O)C(C)C (stereo partly drawn); system = db/db mouse; setting = subcutaneous, 100 nmol/kg single, 0 to 96 h; how to read = baseline: baseline; quantity = blood glucose AUC(0-96); value = 6980 ± 803%
Compound = C=CCn1c(=O)c2cnc(Nc3ccc(N4CCN(C)CC4)cc3)nc2n1-c1ccc2c(n1)[C@@](O)(CC)CC2; system = BALB/c nude mouse, LoVo xenograft; setting = oral, 80 mg/kg once daily, 5 d on 2 d off ×3, day 24; how to read = baseline: vehicle; quantity = tumour volume difference; value = 332 ± 26.8 mm3
Compound = C[C@H]1C[C@H]2CSC(N)=N[C@@]2(c2nc(NC(=O)c3ccc(OC(F)F)cn3)cs2)CO1; test = item: total Aβ; system = healthy adults, plasma; setting = 125 mg once daily, day 7; how to read = baseline: placebo; quantity = percent change from baseline; value = -62.8%
Compound = Cc1n[nH]c2ccc(-c3cc(OC[C@@H](N)Cc4ccccc4)cnc3-c3ccoc3)cc12; test = kinase binding, competitor, MIB/MS competition, item: CDC7; system = Candida albicans cell lysate; setting = 100 nM; how to read = baseline: DMSO; quantity = log2 fold change; value = -0.0168
Compound = OCCCN1CC[C@@H]2C[C@H]1c1cc(-c3ccc(C(F)(F)F)cc3)ccc12; test = immunocytochemistry, item: BiP; system = DRG neurons, TMEM97 knock-out, mouse; setting = dose not given; quantity = protein level; value = no effect
Compound = CC[C@@H](C)[C@@H](NC(=O)[C@@H](Cc1ccc(O)cc1)NC(=O)[C@H]1CCCN1C(=O)[C@@H](CCCNC(=N)N)NC(=O)[C@H](N)Cc1c[nH]cn1)C(=O)N[C@H](C)C(=O)N[C@H](Cc1c[nH]cn1)C(=O)N[C@H](CCCNC(=N)N)C(=O)N[C@@H](C(=O)N[C@H](Cc1ccc(O)cc1)C(=O)N[C@H](CO)C(=O)N[C@H](Cc1ccccc1)C(N)=O)C(C)C; test = ex vivo flow cytometry; system = B16 tumour-bearing mice, tumour; setting = dose not given; quantity = CD3+ CD8+ T cell frequency; value = 17.5% and 16% and 17.3% and 12.8% and 15.4%
Compound = OC(CCN1CCCCC1)(c1ccccc1)C1CC2C=CC1C2 (stereo not drawn); test = resting-state EEG; system = healthy elderly humans; setting = oral, 4 mg, eyes closed, LS mean; quantity = EEG Alpha1-power Pz-O2; value = 12.2 µV²
Compound = C1=C/COCc2cc(ccc2OCCN2CCCC2)Nc2nccc(n2)-c2cccc(c2)COC/1; system = BALB/c mice rhEPO-induced polycythemia; setting = 120 mg/kg; quantity = spleen weight; value = 0.173 g and 0.179 g and 0.163 g and 0.187 g and 0.199 g and 0.184 g

Some of these lines once more:
Compound = C=CCn1c(=O)c2cnc(Nc3ccc(N4CCN(C)CC4)cc3)nc2n1-c1ccc2c(n1)[C@@](O)(CC)CC2; system = BALB/c nude mouse, LoVo xenograft; setting = oral, 80 mg/kg once daily, 5 d on 2 d off ×3, day 24; how to read = baseline: vehicle; quantity = tumour volume difference; value = 332 ± 26.8 mm3
Compound = N#Cc1ccc(Oc2ccc3c(c2)COB3O)cc1; system = Balb/c mice, oxazolone atopic dermatitis; setting = day 17, unit not given; how to read = baseline: vehicle; quantity = ear thickness difference; value = -0.219
